Results collected from several papers.
Lines come from different studies, so protocols differ. ± gives the spread as reported.

COc1cccc(-c2ccc(NC(=O)C3=C(C(=O)O)CCC3)c(F)c2)c1
Cmax (healthy male humans, plasma; oral, 40 mg once daily, day 13, geometric mean): 10900 ng/mL

COc1cc(F)c(F)c(Nc2ccc(I)cc2F)c1NS(=O)(=O)C1(C[C@H](O)CO)CC1
Cmax (human patients, plasma; oral, dose not given, cycle 1 day 15, added: copanlisib): 795 ng/mL

Cc1cc(C)c2c(c1)[C@@H](N(Cc1cc(C(F)(F)F)cc(C(F)(F)F)c1)c1nnn(C)n1)CCCN2C[C@H]1CC[C@H](C(=O)O)CC1
Cmax (human, plasma; oral, 600 mg once daily, steady state, geometric mean): 1330 ng/mL

COc1cc2ncnc(Nc3ccc(F)c(Cl)c3)c2cc1OCCCN1CCOCC1
Cmax (human, plasma; oral, 250 mg, median): 250 ng/mL

N[C@@H](Cc1ccc(O)c(O)c1)C(=O)O
Cmax (human, plasma; oral, 100 mg, mean, recalculated per dose, added: decarboxylase inhibitor): 1210 ± 449 ng/mL

CCc1nc(C(N)=O)c(Nc2ccc(N3CCC(N4CCN(C)CC4)CC3)c(OC)c2)nc1NC1CCOCC1
Cmax (human, normal hepatic function, plasma; oral, 10 mg, single dose, fasted, geometric LS mean): 7.64 ng/mL

CNC(=O)c1ccc(-c2cnc3ncc(Cc4ccc5ncccc5c4)n3n2)cc1F
Cmax (healthy human subjects, plasma; oral, 400 mg, adjusted geometric mean, alone): 3070 ng/mL

NS(=O)(=O)OC[C@@H]1C[C@@H](n2ccc3c(N[C@H]4CCc5ccccc54)ncnc32)C[C@@H]1O
Cmax (human; intravenous, 15 mg/m^2, day 1): 121 ng/mL

N[C@]1(C(=O)O)[C@H]2[C@@H](C[C@@H]1F)[C@@H]2C(=O)O
Cmax (human, fed, plasma; oral, 60 mg multiple, day 14): 263 ng/mL

COc1cc2c(cc1OC)[C@H]1CC(=O)[C@H](CC(C)C)CN1CC2 (racemic)
Cmax (human CYP2D6 extensive metabolizers, plasma; oral, 25 mg, fasted, geometric mean): 0.29 ng/mL

CNCc1ccc(-c2[nH]c3cc(F)cc4c3c2CCNC4=O)cc1
Cmax (human patients, plasma; oral, 500 mg once daily, day 15, steady state, arithmetic mean): 1390 ng/mL

CC(C)(Sc1ccncc1-c1ccc(C#N)c2ccccc12)C(=O)O
Cmax (human, plasma; oral, 15 mg, added: febuxostat 40 mg): 21.2 ng/mL

O=C(c1cccnc1-c1ccncc1)N1CCC(O)(Cc2ccccc2)CC1
Cmax (healthy human, plasma; oral, 100 mg once daily, day 1, arithmetic mean): 468 ng/mL

CCCCC1(CCCC)CN(c2ccccc2)c2cc(SC)c(OCC(=O)N[C@@H](C(=O)NCC(=O)O)c3ccccc3)cc2S(=O)(=O)C1
Cmax (LC-MS/MS; human, plasma; oral, 15 mg, single dose, before breakfast): 0.377 ng/mL

CCOc1c([C@H](C)n2nc(C)c3c(N)ncnc32)cc(Cl)c(F)c1[C@@H]1CNC(=O)C1
Cmax (healthy fasted humans, plasma; oral, 10 mg): 793 ± 169 nM

CNC(=O)c1cccc2cc(Oc3ccnc4cc(OCC5(N)CC5)c(OC)cc34)ccc12
Cmax (human; oral, 10 mg, single dose, intermittent arm): 254 ± 148 ng/mL

O=C(c1ccc(OCCN2CCCCC2)cc1)c1c(-c2ccc(O)cc2)sc2cc(O)ccc12
Cmax (healthy humans, plasma; oral, 60 mg, added: chronic green tea): 0.14 nM

Cn1ncc(Cl)c1-c1cc(C(=O)N[C@H](CN)Cc2ccc(F)c(F)c2)oc1Cl
Cmax (human patients, plasma; oral, 10 mg once daily, day 8, repeat dose): 24.3 to 32.7 ng/mL

Excerpt of the above:
O=C(c1cccnc1-c1ccncc1)N1CCC(O)(Cc2ccccc2)CC1
Cmax (healthy human, plasma; oral, 100 mg once daily, day 1, arithmetic mean): 468 ng/mL

NS(=O)(=O)OC[C@@H]1C[C@@H](n2ccc3c(N[C@H]4CCc5ccccc54)ncnc32)C[C@@H]1O
Cmax (human; intravenous, 15 mg/m^2, day 1): 121 ng/mL

COc1cc2c(cc1OC)[C@H]1CC(=O)[C@H](CC(C)C)CN1CC2 (racemic)
Cmax (human CYP2D6 extensive metabolizers, plasma; oral, 25 mg, fasted, geometric mean): 0.29 ng/mL
